Assay results of several laboratories.
Parts stem from different laboratories: compare values within a part only. Changes are numbered by the printed parent chain.

Series 1
Target: CCNF, cyclin fold, Cln2 fusion (human)
Method: yeast growth competition, sequencing
Medium: yeast
Notes: strong parent motif
Baseline: not given
Reading: higher = stronger binding
Measurement: normalised enrichment score
Starting sequence: RB1 docking peptide (human); PKPLKKLRFDIEG
Substitution = PKPLDKLRFDIEG [K5D]; result = 0.0161
Substitution = PKPLKFLRFDIEG [K6F]; result = 1.09
Substitution = PKPLKKLRFDIFG [E12F]; result = 1.86
Substitution = PKPLKKLRFDDEG [I11D]; result = 0.75
Substitution = PKPLKKLRFDMEG [I11M]; result = 0.826
Substitution = PCPLKKLRFDIEG [K2C]; result = 1.8
Substitution = PKWLKKLRFDIEG [P3W]; result = 2.68
Substitution = PKPLKKLRFDIDG [E12D]; result = 1.28
Substitution = PKPLKKLRFDIEM [G13M]; result = 0.747
Substitution = PKTLKKLRFDIEG [P3T]; result = 0.498
Substitution = PKPLKKLRFDLEG [I11L]; result = 2.71
Substitution = PKPLKKLDFDIEG [R8D]; result = 1.51
Substitution = PKPLKKLRFNIEG [D10N]; result = 1.64

Series 2
Target: Histone acetyltransferase KAT6A, both winged helices, GST fusion (KAT6A, Homo sapiens, UniProt Q92794, residues 1-181)
Method: protein binding microarray
Molecule type: double-stranded DNA, one strand shown
Medium: in vitro
Concentration: not given
Notes: 8-mer, flanks averaged, mean of 2 arrays, mostly near background
Baseline: not given
Reading: higher = stronger binding
Measurement: E-score
Residues (chain): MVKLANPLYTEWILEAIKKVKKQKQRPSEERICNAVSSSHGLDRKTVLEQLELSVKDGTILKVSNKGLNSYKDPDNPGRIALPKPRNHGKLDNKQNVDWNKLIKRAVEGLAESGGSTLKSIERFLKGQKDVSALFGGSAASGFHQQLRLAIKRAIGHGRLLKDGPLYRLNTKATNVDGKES
Sequence = GGTATATA; result = -0.0427
Sequence = TGCACGCA; result = 0.0787
Sequence = GATGCGCC; result = 0.232
Sequence = GGCGGCGA; result = 0.322
Sequence = GTCCAAGA; result = -0.0292
Sequence = CTGCGGAA; result = 0.164
Sequence = CGATGGAC; result = 0.135
Sequence = ATCTGGCA; result = -0.143
Sequence = ATGTTCTG; result = -0.0671
Sequence = GGTCTATA; result = -0.0524
Sequence = AGTCATCA; result = -0.123
Sequence = ATCCTGAG; result = -0.0584

Series 3
Target: Sox-I, HMG box (Salpingoeca helianthica)
Method: Spec-seq
Molecule type: double-stranded DNA, one strand shown
Medium: in vitro
Concentration: not given
Notes: whole probe, mean of replicates
Baseline: not given
Reading: lower = stronger binding
Measurement: relative binding energy
Constant ends, left off below: GAGTCGTCTCGTCAGCAC … CCGTAGAGCACTCAGGTC
Residues (chain): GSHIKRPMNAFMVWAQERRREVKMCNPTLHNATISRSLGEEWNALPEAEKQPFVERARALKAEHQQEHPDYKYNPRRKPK
Sequence = AGTGGTT; result = 0.146 ln ratio
Sequence = CATCTCT; result = 0.685 ln ratio
Sequence = CATGGGT; result = 1.05 ln ratio
Sequence = CATCCCG; result = 1.17 ln ratio
Sequence = CATGGGA; result = 1.01 ln ratio
Sequence = CGGGGTT; result = 1.2 ln ratio
Sequence = CGGAGTT; result = 1.01 ln ratio
Sequence = AAGAGTT; result = -0.277 ln ratio
Sequence = CCTAGTT; result = 0.0651 ln ratio
Sequence = CATTACA; result = 0.391 ln ratio
Sequence = TCCTGTT; result = -0.781 ln ratio
Sequence = CATAGCC; result = 0.511 ln ratio

Other studies, line by line
Molecule = PhoQ, residues 284 288 289 292 302 303 TAVSDG; target = PhoP, residues 12 14 15 18 19 LYHSL (Escherichia coli, UniProt P23836); test = Sort-seq, item: YFP reporter; test system = E. coli; setting = PhoQ-PhoP variant library, with: 10 µM Mg2+; how to read = baseline: high Mg2+ state, higher = stronger signaling; measurement = fold induction; result = 1.03

A few entries again (series 3):
Sequence = CATGGGA; result = 1.01 ln ratio
Sequence = TCCTGTT; result = -0.781 ln ratio
